Measurements pooled from the literature.
Every numbered part comes from another study and shows a few of its results, in no order. Several values in a cell are separate wells, animals, samples, runs or records.
Chain of UniProt P18825 (whole entry, looked up): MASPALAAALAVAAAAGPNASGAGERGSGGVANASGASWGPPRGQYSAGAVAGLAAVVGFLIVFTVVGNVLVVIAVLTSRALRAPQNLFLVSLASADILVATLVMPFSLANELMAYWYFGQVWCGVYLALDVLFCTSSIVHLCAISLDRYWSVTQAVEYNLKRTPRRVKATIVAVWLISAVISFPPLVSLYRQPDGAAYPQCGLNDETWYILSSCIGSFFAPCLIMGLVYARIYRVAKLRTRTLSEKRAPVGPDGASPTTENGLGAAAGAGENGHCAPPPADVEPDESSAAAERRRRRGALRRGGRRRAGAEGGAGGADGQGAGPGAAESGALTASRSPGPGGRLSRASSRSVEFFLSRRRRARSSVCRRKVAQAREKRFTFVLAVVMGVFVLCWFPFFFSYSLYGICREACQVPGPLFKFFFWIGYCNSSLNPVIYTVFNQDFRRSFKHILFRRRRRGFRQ
Chain of UniProt P08913 (whole entry, looked up): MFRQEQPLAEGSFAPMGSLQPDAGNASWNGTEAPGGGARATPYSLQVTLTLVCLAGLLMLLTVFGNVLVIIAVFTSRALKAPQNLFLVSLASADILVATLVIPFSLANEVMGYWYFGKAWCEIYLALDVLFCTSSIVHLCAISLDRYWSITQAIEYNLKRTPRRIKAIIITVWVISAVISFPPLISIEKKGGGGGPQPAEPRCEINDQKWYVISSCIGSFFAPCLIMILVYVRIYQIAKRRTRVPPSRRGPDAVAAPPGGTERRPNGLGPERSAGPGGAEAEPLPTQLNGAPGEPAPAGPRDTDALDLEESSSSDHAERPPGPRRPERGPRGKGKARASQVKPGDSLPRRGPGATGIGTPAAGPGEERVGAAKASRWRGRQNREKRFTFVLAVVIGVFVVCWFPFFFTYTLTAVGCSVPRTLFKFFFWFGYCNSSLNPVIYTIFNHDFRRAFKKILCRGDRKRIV
Chain of UniProt Q9Y5N1 (whole entry, looked up): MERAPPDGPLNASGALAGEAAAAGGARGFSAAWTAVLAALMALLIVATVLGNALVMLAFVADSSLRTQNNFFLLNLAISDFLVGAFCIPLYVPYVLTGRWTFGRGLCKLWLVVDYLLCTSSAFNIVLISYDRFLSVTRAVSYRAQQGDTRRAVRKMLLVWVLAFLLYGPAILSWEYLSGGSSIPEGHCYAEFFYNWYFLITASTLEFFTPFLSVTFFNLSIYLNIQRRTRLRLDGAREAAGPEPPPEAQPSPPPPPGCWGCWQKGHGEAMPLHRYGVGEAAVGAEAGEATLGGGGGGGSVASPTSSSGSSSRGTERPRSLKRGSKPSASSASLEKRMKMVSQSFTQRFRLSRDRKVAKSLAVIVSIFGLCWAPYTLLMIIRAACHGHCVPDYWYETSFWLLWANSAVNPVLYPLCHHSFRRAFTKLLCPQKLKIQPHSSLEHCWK
Chain of UniProt P25100 (whole entry, looked up): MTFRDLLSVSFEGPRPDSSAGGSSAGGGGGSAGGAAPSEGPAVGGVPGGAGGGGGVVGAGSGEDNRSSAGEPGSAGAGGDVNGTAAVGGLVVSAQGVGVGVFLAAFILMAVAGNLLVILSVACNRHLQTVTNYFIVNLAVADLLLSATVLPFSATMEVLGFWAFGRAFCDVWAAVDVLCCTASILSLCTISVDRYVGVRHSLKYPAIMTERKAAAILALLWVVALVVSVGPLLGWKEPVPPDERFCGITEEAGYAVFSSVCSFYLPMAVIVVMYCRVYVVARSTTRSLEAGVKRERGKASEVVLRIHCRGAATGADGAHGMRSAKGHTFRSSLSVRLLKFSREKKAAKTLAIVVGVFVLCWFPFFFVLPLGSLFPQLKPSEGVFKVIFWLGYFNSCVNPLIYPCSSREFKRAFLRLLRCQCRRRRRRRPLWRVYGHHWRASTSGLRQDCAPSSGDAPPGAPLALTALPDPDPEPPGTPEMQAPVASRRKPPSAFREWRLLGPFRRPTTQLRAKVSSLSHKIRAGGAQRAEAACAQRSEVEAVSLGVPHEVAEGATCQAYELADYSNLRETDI
Chain of UniProt P08173 (whole entry, looked up): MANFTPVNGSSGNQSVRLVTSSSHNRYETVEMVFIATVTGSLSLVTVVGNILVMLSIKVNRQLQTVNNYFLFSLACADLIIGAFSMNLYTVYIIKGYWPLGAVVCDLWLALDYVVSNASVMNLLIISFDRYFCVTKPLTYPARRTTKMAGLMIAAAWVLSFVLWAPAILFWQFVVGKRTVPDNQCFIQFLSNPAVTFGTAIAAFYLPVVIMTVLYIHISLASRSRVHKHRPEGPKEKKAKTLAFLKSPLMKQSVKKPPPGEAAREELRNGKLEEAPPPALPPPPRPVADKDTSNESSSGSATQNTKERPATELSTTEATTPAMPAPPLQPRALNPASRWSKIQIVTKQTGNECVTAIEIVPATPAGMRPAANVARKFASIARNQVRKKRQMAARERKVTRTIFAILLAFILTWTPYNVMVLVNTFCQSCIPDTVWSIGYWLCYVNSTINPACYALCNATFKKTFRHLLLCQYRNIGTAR
Chain of UniProt P18089 (whole entry, looked up): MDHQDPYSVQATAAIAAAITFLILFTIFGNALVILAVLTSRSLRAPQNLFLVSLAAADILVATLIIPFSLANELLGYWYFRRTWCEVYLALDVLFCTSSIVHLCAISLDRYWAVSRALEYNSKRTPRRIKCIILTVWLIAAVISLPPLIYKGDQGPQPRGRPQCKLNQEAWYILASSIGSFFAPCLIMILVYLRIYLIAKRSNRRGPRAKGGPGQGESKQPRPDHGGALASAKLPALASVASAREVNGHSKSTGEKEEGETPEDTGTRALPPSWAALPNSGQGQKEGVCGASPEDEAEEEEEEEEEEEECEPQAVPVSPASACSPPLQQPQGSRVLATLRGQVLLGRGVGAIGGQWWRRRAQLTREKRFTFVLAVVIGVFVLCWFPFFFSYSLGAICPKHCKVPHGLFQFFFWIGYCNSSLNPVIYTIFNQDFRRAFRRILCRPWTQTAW
Chain of UniProt P25021 (whole entry, looked up): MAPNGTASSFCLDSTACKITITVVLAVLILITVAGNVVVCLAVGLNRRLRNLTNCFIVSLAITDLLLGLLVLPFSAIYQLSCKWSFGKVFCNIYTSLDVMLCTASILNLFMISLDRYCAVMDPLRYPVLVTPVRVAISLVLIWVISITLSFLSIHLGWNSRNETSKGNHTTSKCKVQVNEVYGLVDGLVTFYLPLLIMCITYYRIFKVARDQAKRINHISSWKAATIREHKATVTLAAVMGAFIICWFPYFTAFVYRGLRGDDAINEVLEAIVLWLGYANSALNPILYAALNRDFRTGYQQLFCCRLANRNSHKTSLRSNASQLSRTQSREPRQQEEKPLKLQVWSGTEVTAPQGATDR
Chain of UniProt P21917 (whole entry, looked up): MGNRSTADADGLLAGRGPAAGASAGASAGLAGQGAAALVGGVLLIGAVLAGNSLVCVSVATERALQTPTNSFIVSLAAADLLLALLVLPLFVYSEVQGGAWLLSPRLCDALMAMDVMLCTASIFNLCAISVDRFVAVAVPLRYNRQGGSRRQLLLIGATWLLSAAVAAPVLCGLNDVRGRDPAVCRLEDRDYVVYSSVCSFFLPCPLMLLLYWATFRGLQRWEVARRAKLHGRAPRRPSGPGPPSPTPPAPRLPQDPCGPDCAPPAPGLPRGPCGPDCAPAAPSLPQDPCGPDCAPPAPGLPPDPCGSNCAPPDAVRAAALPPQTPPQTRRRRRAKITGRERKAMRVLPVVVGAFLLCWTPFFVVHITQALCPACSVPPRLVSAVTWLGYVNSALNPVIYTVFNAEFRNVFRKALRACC
Chain of UniProt P34969 (whole entry, looked up): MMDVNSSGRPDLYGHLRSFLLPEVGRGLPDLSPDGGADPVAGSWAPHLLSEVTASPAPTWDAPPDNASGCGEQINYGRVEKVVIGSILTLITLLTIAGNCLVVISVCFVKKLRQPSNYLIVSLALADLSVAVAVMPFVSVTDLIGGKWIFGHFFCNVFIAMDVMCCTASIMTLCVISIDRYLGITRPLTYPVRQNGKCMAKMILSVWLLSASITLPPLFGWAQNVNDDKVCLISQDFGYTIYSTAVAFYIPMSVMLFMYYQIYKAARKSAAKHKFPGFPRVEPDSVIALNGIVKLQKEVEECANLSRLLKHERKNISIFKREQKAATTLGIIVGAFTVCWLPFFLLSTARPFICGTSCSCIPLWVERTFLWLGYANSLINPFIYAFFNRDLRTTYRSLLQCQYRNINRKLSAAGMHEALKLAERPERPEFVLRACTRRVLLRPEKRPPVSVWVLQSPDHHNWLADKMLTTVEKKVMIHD
Chain of UniProt Q5BJF2 (whole entry, looked up): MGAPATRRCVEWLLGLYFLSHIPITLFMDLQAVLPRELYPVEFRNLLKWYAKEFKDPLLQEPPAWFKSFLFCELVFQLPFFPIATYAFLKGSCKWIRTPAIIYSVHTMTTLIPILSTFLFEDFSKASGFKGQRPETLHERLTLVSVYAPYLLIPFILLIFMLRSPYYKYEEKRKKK

Series 1
Cell line: Huh-7
Tested at: 10 µM
Time: 24 h
With `CN1C(C(=O)Nc2ccccn2)=C(O)c2sccc2S1(=O)=O` the viability was 101%.
`CC(C[N+](C)(C)C)OC(N)=O` (stereo not shown) gave a viability of 102%.
For `C[C@H](CCC(=O)O)[C@H]1CC[C@H]2[C@@H]3C(=O)C[C@@H]4CC(=O)CC[C@]4(C)[C@H]3CC(=O)[C@]12C`, the viability was 102%.
`CCN(CC)CCCC(C)Nc1c2ccc(Cl)cc2nc2ccc(OC)cc12` (stereo not shown) gave a viability of 37.7%.
The viability of `CC(=O)c1ccc(S(=O)(=O)NC(=O)NC2CCCCC2)cc1` is reported as 75.7%.
The viability of `O=C1C(CC[S+]([O-])c2ccccc2)C(=O)N(c2ccccc2)N1c1ccccc1` (stereo not shown) is reported as 101%.
The viability of `COCCCOc1ccnc(C[S+]([O-])c2nc3ccccc3[nH]2)c1C` (stereo not shown) is reported as 96.4%.
`NC(=O)N/N=C/c1ccc([N+](=O)[O-])o1` gave a viability of 95.6%.

Series 2
Structure (SMILES): CC(=O)Nc1c(C(C)=O)c(=O)n(C)c2nc(-c3ccc(Cl)cc3Cl)c(-c3ccc(Cl)cc3)cc12
Read-out: cell-free assay
Tested at: 10 µM
HRH2 (Homo sapiens, UniProt P25021) — inhibition: 6.71%.
It gave -3.09% for inhibition (ADRA1D (Homo sapiens, UniProt P25100)).
The inhibition was 16.6% (ADRA2B (Homo sapiens, UniProt P18089)).
It gave 1.31% for inhibition (ADRA2A (Homo sapiens, UniProt P08913)).
CHRM2 (Homo sapiens, UniProt P08172) — inhibition: -7.96%.
ADRB3 (Homo sapiens, UniProt P13945) — inhibition: 37.6%.
For HRH1 (Homo sapiens, UniProt P35367): inhibition read -1.39%.
For ADRB2 (Homo sapiens, UniProt P07550): inhibition read 12.6%.
ADRA1A (Homo sapiens, UniProt P35348) — inhibition: -6.63%.
It gave -10.5% for inhibition (ADRB1 (Homo sapiens, UniProt P08588)).
HTR6 (Homo sapiens, UniProt P50406) — inhibition: -3.97%.
It gave 13.9% for inhibition (HRH4 (Homo sapiens, UniProt Q9H3N8)).
For TMEM97 (Homo sapiens, UniProt Q5BJF2): inhibition read 54.6%.
For ADRA1B (Homo sapiens, UniProt P35368): inhibition read 17.1%.
DRD4 (Homo sapiens, UniProt P21917) — inhibition: 22.7%.
For CHRM4 (Homo sapiens, UniProt P08173): inhibition read 0.711%.
It gave -2.68% for inhibition (HRH3 (Homo sapiens, UniProt Q9Y5N1)).
For ADRA2C (Homo sapiens, UniProt P18825): inhibition read 3.44%.
For HTR2B (Homo sapiens, UniProt P41595): inhibition read 1.6%.
The inhibition was 8.91% (HTR7 (Homo sapiens, UniProt P34969)).

Series 3
Target: Calcium/calmodulin-dependent protein kinase type II subunit alpha (CAMK2A, Homo sapiens, UniProt Q9UQM7)
Chain of UniProt Q9UQM7 (whole entry, looked up): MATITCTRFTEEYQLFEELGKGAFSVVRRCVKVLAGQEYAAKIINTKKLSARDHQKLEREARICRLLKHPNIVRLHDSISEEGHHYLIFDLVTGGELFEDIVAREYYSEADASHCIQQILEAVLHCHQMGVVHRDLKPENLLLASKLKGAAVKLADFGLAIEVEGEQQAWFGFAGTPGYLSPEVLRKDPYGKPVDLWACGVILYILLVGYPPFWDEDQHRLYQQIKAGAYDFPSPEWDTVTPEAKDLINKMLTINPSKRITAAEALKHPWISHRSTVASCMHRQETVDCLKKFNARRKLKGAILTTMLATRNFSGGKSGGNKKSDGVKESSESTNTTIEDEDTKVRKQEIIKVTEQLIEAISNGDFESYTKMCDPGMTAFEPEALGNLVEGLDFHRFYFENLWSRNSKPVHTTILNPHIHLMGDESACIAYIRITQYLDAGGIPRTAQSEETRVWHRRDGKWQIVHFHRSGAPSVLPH
Read-out: enzyme activity
Mode: inhibitor
Tested at: 10 µM
`CC(=O)OC(C)(C)CCC(=O)[C@](C)(O)[C@H]1[C@H](O)C[C@@]2(C)[C@@H]3CC=C4[C@@H](C[C@H](O)[C@@H](O)C4(C)C)[C@]3(C)C(=O)C[C@]12C` gave an inhibition of 7%.
`COc1c2ccoc2c(OC[C@@H](O)C(C)(C)O)c2oc(=O)ccc12` has an inhibition of 2%.
The inhibition of `CNCC(=O)O` is reported as -2%.
The inhibition of `O=C1N=C(O)NC1(c1ccccc1)c1ccccc1` is reported as 0%.
With `CCCCC[C@](C)(O)/C=C/[C@@H]1[C@@H](C/C=C\CCCC(=O)O)[C@@H](O)C[C@H]1O` the inhibition was 1%.
The inhibition of `Cc1cn([C@@H]2C[C@@H](O)[C@H](CO)O2)c(=O)[nH]c1=O` is reported as -14%.
The inhibition of `COc1cccc(-c2oc3ccccc3c(=O)c2O)c1` is reported as -23%.
`O=C1[C@@H]2[C@H]3CC[C@H](C3)[C@@H]2C(=O)N1C[C@@H]1CCCC[C@H]1CN1CCN(c2nsc3ccccc23)CC1` gave an inhibition of -8%.
The inhibition of `CC(=O)OC[C@H]1O[C@@H](OC[C@H]2O[C@@H](OC(=O)[C@]34CCC(C)(C)C[C@H]3C3=CC[C@@H]5[C@@]6(C)CC[C@H](O[C@@H]7OC[C@H](O)[C@H](O)[C@H]7O[C@@H]7O[C@H](CO)[C@@H](O)[C@H](O)[C@H]7O)C(C)(C)[C@@H]6CC[C@@]5(C)[C@]3(C)CC4)[C@H](O)[C@@H](O)[C@@H]2O)[C@H](O)[C@@H](O)[C@@H]1O[C@@H]1O[C@@H](C)[C@H](O)[C@@H](O)[C@H]1O` is reported as 21%.

Series 4
Cell line: mouse MPNST tumor cells
Method: high-content nuclear imaging
Item: cell number
Tested at: 10 µM
Time: 12 h
Notes: mean of 2 replicates
Baseline: plate mean
Reading: higher = more cells
`Cc1ccc2cccc(NC(=O)c3ccc(OC(C)C)cc3)c2n1` has a nuclei count of 1.51 z-score.
For `O=C(Nc1cccc2cccnc12)c1ccc(N2C(=O)[C@@H]3[C@H](C2=O)[C@@H]2C=C[C@H]3C2)cc1`, the nuclei count was 1.25 z-score.
With `COc1ccc(NS(=O)(=O)c2ccc(N)cc2)nn1` the nuclei count was 4.65 z-score.
With `CC(=O)c1cc(-c2ccccc2OCC2CC2)c2ncccn12` the nuclei count was 0.191 z-score.
For `NC[C@@H]1O[C@H](O[C@H]2[C@@H](O)[C@H](O[C@@H]3[C@@H](O)[C@H](N)C[C@H](N)[C@H]3O[C@H]3O[C@H](CN)[C@@H](O)[C@H](O)[C@H]3N)O[C@@H]2CO)[C@H](N)[C@@H](O)[C@@H]1O`, the nuclei count was 0.284 z-score.
The nuclei count of `O=C1C(=O)c2ccccc2C(O)=C1C1CCC(c2ccc(Cl)cc2)CC1` (stereo not shown) is reported as 0.28 z-score and -0.154 z-score.
